# Measurements gathered from unrelated publications.
# Lines come from different studies, so protocols differ. ± gives the spread as reported.
# Urease: Urease (Canavalia ensiformis, UniProt P07374)
# Integrin alpha-V/beta-3: Integrin alpha-V/beta-3 (Homo sapiens, UniProt P05106+P06756)
# FOLH1: Glutamate carboxypeptidase 2 (FOLH1, Homo sapiens, UniProt Q04609)
Structure (SMILES),target,test,system,conditions,IC50
F[P-](F)(F)(F)(F)F.OCP(CO)CO.OCP(CO)CO.OCP(CO)CO.OCP(CO)CO.[Cu+],"PSMB6/PSMB5/PSMB7 (Homo sapiens, UniProt P28072+P28074+Q99436)",caspase-like activity,26S proteasome from LoVo cells,,21 µM
NC(=O)c1ccc(NC(=O)c2cccc(CC3CCCCC3)n2)c(Cc2ccccc2)c1,"Capsid scaffolding protein, protease domain (Human herpesvirus 8 type P, UniProt Q2HRB6)",,,pH 8,no inhibition
Nc1nc2c(c(=O)[nH]1)[n+](Cc1cccc(OS(=O)(=O)F)c1)cn2[C@@H]1O[C@H](COP(=O)(O)O)[C@@H](O)[C@H]1O,"7-methylguanosine phosphate-specific 5'-nucleotidase (NT5C3B, Homo sapiens, UniProt Q969T7)","m7GMP dephosphorylation, inhibitor, malachite green",,"1 h preincubation, pH 7.5, 30 °C, together with: m7GMP 100 µM",0.9 ± 0.3 µM
O=C(O)c1ccccc1-c1c2ccc(=O)c([As]3SCCS3)c-2oc2c([As]3SCCS3)c(O)ccc12,"Tyrosine-protein phosphatase non-receptor type 6 (PTPN6, Homo sapiens, UniProt P29350)","enzyme activity, inhibitor, absorbance",,"pH 7, with preincubation",~0.7 µM
CP(=O)(O)CN,Urease,inhibitor,,pH 7,> 1000 µM
O=C(CCCCCCC(=O)Nc1cccc(N=Nc2ccccc2)c1)NO,"Histone deacetylase 1 (HDAC1, Homo sapiens, UniProt Q13547)","enzyme activity, inhibitor",,trans isomer,0.014 ± 0.006 µM
CN(C)S(=O)(=O)c1cc(O)c(O)c2c1CN(Cc1ccc(F)c(Cl)c1)C2=O,"Gag-Pol polyprotein, integrase (gag-pol, Human immunodeficiency virus 1, UniProt P12497)","3'-processing, inhibitor, gel-based",,recombinant wild-type integrase,8.6 ± 0.6 µM
N=C(N)NCCC[C@@H]1NC(=O)[C@H](CCCCNC(=O)CC[C@H](NC(=O)CCOCCOCCOCCOCCNC(=O)CC[C@H](NC(=O)CN2CCN(CC(=O)O)CCN(CC(=O)O)CCN(CC(=O)O)CC2)C(=O)NCCOCCOCCOCCOCCC(=O)N[C@@H](CCC(=O)NCCCC[C@@H]2NC(=O)[C@@H](Cc3ccccc3)NC(=O)[C@H](CC(=O)O)NC(=O)CNC(=O)[C@H](CCCNC(=N)N)NC2=O)C(=O)NCCCC[C@@H]2NC(=O)[C@@H](Cc3ccccc3)NC(=O)[C@H](CC(=O)O)NC(=O)CNC(=O)[C@H](CCCNC(=N)N)NC2=O)C(=O)NCCCC[C@@H]2NC(=O)[C@@H](Cc3ccccc3)NC(=O)[C@H](CC(=O)O)NC(=O)CNC(=O)[C@H](CCCNC(=N)N)NC2=O)NC(=O)[C@@H](Cc2ccccc2)NC(=O)[C@H](CC(=O)O)NC(=O)CNC1=O,Integrin alpha-V/beta-3,"ligand displacement, radioligand",,,0.0005 µM
CC[C@@H]1NC(=O)[C@H]([C@H](O)[C@H](C)Cc2nc3ccc(C(=O)OC)cc3[nH]2)N(C)C(=O)[C@H](C(C)C)N(C)C(=O)[C@H](CC(C)C)N(C)C(=O)[C@H](CC(C)C)N(C)C(=O)[C@@H](C)NC(=O)[C@H](C)NC(=O)[C@H](CC(C)C)N(C)C(=O)[C@H](C(C)C)NC(=O)[C@H](CC(C)C)N(C)C(=O)CN(C)C1=O,"PPIA/Calcineurin subunit B type 1/PPP3CA (Homo sapiens, UniProt P62937+P63098+Q08209)","enzyme activity, inhibitor",,,6.9 µM
CCCN1CCc2cc(O)cc3c2[C@H]1Cc1ccc(O)c(O)c1-3,"Carbamate kinase (Giardia intestinalis, UniProt A8BB85)","enzyme activity, ATP luminescence",,,8.19 µM
CC(C)[C@H](NC(=O)[C@H]1NC(=O)[C@H](CO)NC(=O)[C@H](CC(N)=O)NC(=O)[C@@H](N)Cc2c[nH]c3cc(ccc23)C1C(N)=O)C(=O)N[C@H]1Cc2cn(cn2)C(c2ccc(O)cc2)[C@@H](C(=O)N[C@@H](CCCNC(=N)N)C(=O)N[C@@H](Cc2ccccc2)C(=O)O)NC(=O)[C@H](CO)NC1=O (stereo partly shown),"bamA, in BAM complex (Escherichia coli, UniProt P0A940)",inhibitor,,,0.016 ± 0.002 µM
CNCP(=O)(O)O,Urease,"enzyme activity, inhibitor, absorbance",,pH 7,678 µM
CC(=O)N[C@@H](CC(C)C)C(=O)N[C@@H](CCC(=O)O)C(=O)N[C@@H](CO)C(=O)N[C@@H](CC(=O)O)C(=O)CCl,"Caspase-10 (CASP10, Homo sapiens, UniProt Q92851)","enzyme activity, inhibitor, fluorescence",,,0.52 µM
CCCC[C@H](NC(=O)[C@H](C)NC(=O)[C@H](CCC(=O)O)NC(=O)[C@H](Cc1ccccc1)NC[C@H](CC(C)C)NC(=O)[C@H](C)NC(=O)[C@@H](N)CCCNC(=N)N)C(=O)O,"Gag-Pol polyprotein, protease (gag-pol, Human immunodeficiency virus 1, UniProt P12497)","enzyme activity, inhibitor, FRET",NL4-3 wild type,,0.0782 ± 0.0117 µM
Cc1ccc2nc(C(F)(F)F)c(C(=O)NCc3cccc(Cl)c3)n2c1,"Cytochrome P450 2D6 (CYP2D6, Homo sapiens, UniProt P10635)",inhibitor,,,1.9 µM
Cc1cc(S(=O)(=O)Nc2ncccn2)c(F)cc1N(C)C1CCN([C@H](C)c2ccccc2)CC1,"Sodium channel protein type 8 subunit alpha (SCN8A, Homo sapiens, UniProt Q9UQD0)","ion current, inhibitor, automated patch clamp",,"resting state, held at -120 mV",> 100 µM
CCC(C)C1NC(=O)C(Cc2ccccc2)NC(=O)C(CCCCCC(=O)C2CO2)NC(=O)C2CCCCN2C1=O (stereo not shown),"Histone deacetylase (Plasmodium falciparum 3D7, UniProt Q7K6A1)","enzyme activity, inhibitor",,,0.0011 µM
O=C(O)CCn1c(=O)oc2cc(Cl)c(Cl)cc21,"Kynurenine 3-monooxygenase (Pseudomonas fluorescens, UniProt Q84HF5)","enzyme activity, inhibitor",,,0.5 µM
CC1(C)O[C@H]2OC(CNCCCCCCCCCCCCNCC3O[C@@H]4OC(C)(C)O[C@@H]4[C@H]3OCc3ccccc3)[C@H](OCc3ccccc3)[C@H]2O1 (stereo partly shown),"DNA ligase 1 (Homo sapiens, UniProt P18858)","enzyme activity, inhibitor, radiometric",,,27 µM
NCCCCCC(=O)NC(CCC(=O)N[C@H](CCCOP(=O)(O)NC(CCC(=O)O)C(=O)O)C(=O)O)C(=O)O (stereo partly shown),FOLH1,,,,0.019 µM
COCC1CCCCN1C(=O)n1cc(C(O)(c2ccccc2)c2ccccc2)nn1 (stereo not shown),"sn-1-specific diacylglycerol lipase ABHD11 (Mus musculus, UniProt Q8K4F5)","enzyme activity, inhibitor",,,0.001 µM
CC(C)[C@H](NC(=O)c1ccc(CNc2nc3c(c(=O)[nH]2)CCC3)cc1)C(=O)NC1COC1,"Neutrophil collagenase (MMP8, Homo sapiens, UniProt P22894)","enzyme activity, inhibitor",,,> 5 µM
O=C1C(O)=C(Nc2cccc(C(F)(F)F)c2)C(=O)c2ccccc21,"Dihydroorotate dehydrogenase (quinone), mitochondrial (DHODH, Homo sapiens, UniProt Q02127)","enzyme activity, inhibitor, absorbance",,,0.101 µM
CSCC[C@H](N)C(=O)N[C@@H](CC(C)C)C(=O)N[C@@H](Cc1ccccc1)C(=O)N[C@@H](CO)C(=O)NCC(=O)N[C@@H](CCC(N)=O)C(=O)N[C@H](C(=O)N[C@@H](CC(C)C)C(=O)O)C(C)C,"Angiotensin-converting enzyme (ACE, Homo sapiens, UniProt P12821)","enzyme activity, inhibitor, HPLC",,,603 µM
Nc1ncnc2c1ncn2[C@@H]1O[C@H](CSCCNC(=O)NCCc2ccccc2)[C@@H](O)[C@H]1O,"DNA (cytosine-5)-methyltransferase 3A, with DNMT3L (DNMT3A, Homo sapiens, UniProt Q9Y6K1)",inhibitor,,,> 50 µM
Cc1cc(N2CCNCC2)nc(C#N)n1,"Phosphatidylinositol 3,4,5-trisphosphate 5-phosphatase 1, Ptase-C2 domains (INPP5D, Homo sapiens, UniProt Q92835)","enzyme activity, inhibitor",,,930 µM
CC1(C)C(/C=C/C2=C(Oc3ccc(S(=O)(=O)O)cc3)C(=C/C=C3/N(CCCCS(=O)(=O)O)c4ccc(S(=O)(=O)O)cc4C3(C)C)/CCC2)=[N+](CCCCCC(=O)NC(CC(=O)NCCCCNC(=O)CCCCCCC(=O)NCCCC[C@H](NC(=O)N[C@@H](CCC(=O)O)C(=O)O)C(=O)O)CC(=O)NCCCC[C@@H]2NC(=O)[C@@H](Cc3ccccc3)NC(=O)[C@H](CC(=O)O)NC(=O)CNC(=O)[C@H](CCCNC(=N)N)NC2=O)c2ccc(S(=O)(=O)[O-])cc21 (stereo partly shown),Integrin alpha-V/beta-3,"ligand displacement, FP",,,0.09 µM
COc1c(OCCOCCOc2cccc(C(=O)C3CCN(CCc4ccc(F)cc4)CC3)c2OC)cccc1C(=O)C1CCN(CCc2ccc(F)cc2)CC1,"5-hydroxytryptamine receptor 2A (HTR2A, Homo sapiens, UniProt P28223)","phosphorylation in cells, antagonist",,,0.298 µM
CSCC[C@H](NC(=O)[C@H](C)N)C(=O)N[C@@H](CCCNC(=N)N)C(=O)N[C@@H](CCC(N)=O)C(=O)N[C@H](C(=O)N[C@@H](Cc1c[nH]cn1)C(=O)N[C@@H](CC(N)=O)C(=O)N[C@@H](Cc1ccccc1)C(=O)N[C@@H](Cc1ccccc1)C(=O)N[C@@H](Cc1ccccc1)C(=O)N[C@@H](Cc1ccccc1)C(=O)N[C@@H](Cc1ccccc1)C(=O)N[C@@H](Cc1ccccc1)C(=O)N[C@@H](CCCCN)C(=O)N[C@@H](CCCNC(=N)N)C(=O)N[C@@H](CCCNC(=N)N)C(=O)O)[C@@H](C)O,"histidine kinase ComD (Streptococcus pneumoniae serotype 2, UniProt A0A0H2ZM50)","reporter gene, antagonist","Streptococcus pneumoniae, D39 comX::lacZ","30 min, 37 °C, together with: CSP1 50 nM",> 10 µM
CC[C@H](C)[C@H](NC(=O)[C@H](C)NC(=O)[C@@H](NC(=O)[C@H](CC(=O)O)NC(=O)[C@H](CCCCN)NC(=O)[C@H](CO)NC(=O)[C@@H](NC(=O)[C@H](CC(N)=O)NC(=O)[C@H](C)NC(=O)[C@@H](NC(=O)[C@H](CCC(=O)O)NC(=O)[C@H](CCCCN)NC(=O)[C@@H](NC(=O)[C@@H](NC(=O)[C@H](Cc1c[nH]cn1)NC(=O)[C@H](CCCCN)NC(=O)[C@@H](NC(=O)[C@H](CCCCN)NC(=O)[C@H](CCCCN)NC(=O)[C@@H](NC(=O)[C@H](CC(C)C)NC(=O)[C@H](CCCCN)NC(=O)[C@H](CC(N)=O)NC(=O)[C@H](Cc1ccccc1)NC(=O)[C@H](CCCNC(=N)N)NC(=O)[C@H](CCCCN)NC(=O)[C@H](CCCNC(=N)N)NC(=O)[C@H](Cc1ccccc1)NC(=O)CN)C(C)C)C(C)C)[C@@H](C)O)[C@@H](C)CC)[C@@H](C)O)C(C)C)C(C)C)C(=O)N[C@H](C(=O)N[C@@H](C)C(=O)NCC(=O)N[C@@H](CO)C(=O)NCC(=O)N[C@H](C(=O)N[C@@H](C)C(=O)N[C@H](C(=O)NCC(=O)N[C@@H](C)C(=O)N[C@@H](C)C(=O)N[C@@H](CCSC)C(N)=O)C(C)C)C(C)C)C(C)C,"Voltage-gated inwardly rectifying potassium channel KCNH2 (KCNH2, Homo sapiens, UniProt Q12809)","ion current, inhibitor, patch clamp",,,> 30 µM
CC(C)[C@H](N)C(=O)N[C@H]1CSCC(=NOCC(=O)NCP(=O)(Oc2ccccc2)Oc2ccccc2)CSC[C@@H](C(=O)NCC(N)=O)NC(=O)[C@@H]2CCCN2C(=O)[C@H](C(C)C)NC(=O)[C@H](C)NC(=O)[C@H](CCCNC(=N)N)NC(=O)[C@H](Cc2ccc(O)cc2)NC(=O)[C@H](CCCNC(=N)N)NC(=O)[C@H](CCC(N)=O)NC1=O,"Fluorophosphonate-binding serine hydrolase F (Staphylococcus aureus, UniProt Q2FUY3)","enzyme activity, inhibitor",,"1 h preincubation, together with: 4-methylumbelliferyl heptanoate",~35 µM
C/C=C1/CN2CCc3c([nH]c4ccccc34)[C@@H]2C[C@@H]1/C(=C\OC)C(=O)OC,"5-hydroxytryptamine receptor 4 (HTR4, Cavia porcellus, UniProt O70528)","ligand displacement, radioligand",,cell membranes,94.5 µM
CCc1n[nH]c(NC(=O)c2ccc3c(c2)nnn3C)n1,"Procathepsin L (CTSL, Homo sapiens, UniProt P07711)","enzyme activity, inhibitor, FRET",,,> 100 µM
CC[C@@H]1C(=O)N(C)c2cnc(Nc3ccc(C(=O)NCCCC[C@H](NC(=O)[C@@H](NC(=O)[C@H](CO)NC(=O)[C@H](Cc4cncn4CCCCCCCCc4ccccc4)NC(=O)[C@H](CC(C)C)NC(=O)[C@@H]4CCCN4C(C)=O)[C@@H](C)OP(=O)(O)O)C(N)=O)cc3OC)nc2N1C1CCCC1,"Serine/threonine-protein kinase PLK2 (PLK2, Homo sapiens, UniProt Q9NYY3)","enzyme activity, inhibitor",,,0.0072 µM
CC(=O)[C@H]1CC[C@H]2[C@@H]3CC=C4C[C@@H](O)CC[C@]4(C)[C@H]3CC[C@]12C,"Carbonic anhydrase 2 (CA2, Homo sapiens, UniProt P00918)","enzyme activity, inhibitor, absorbance",,,89.4 µM
CC(C)C[C@H](NC(=O)[C@@H]1CCCN1C(=O)[C@H](CCCCN)NC(=O)[C@@H](N)CO)C(=O)N1CCC[C@H]1C(=O)N[C@@H](CCC(=O)O)C(=O)N[C@H](C(=O)N[C@H](C(=O)N[C@@H](CC(=O)O)C(=O)N[C@@H](CCC(=O)O)C(=O)N[C@@H](Cc1ccc(O)cc1)C(=O)N[C@@H](Cc1cn(CCOCCOCCOCCNC(=O)CCc2ccc(O)c(CN(CCN(CC(=O)O)Cc3cc(CCC(=O)NCCCC[C@H](NC(=O)N[C@@H](CCC(=O)O)C(=O)O)C(=O)O)ccc3O)CC(=O)O)c2)nn1)C(=O)O)[C@@H](C)O)C(C)C,FOLH1,"ligand displacement in cells, radioligand",,,0.0303 µM
CC1C(=NOCc2cc(-c3ccc(Cl)cc3)no2)C(C)C(c2ccc(Cl)cc2)OC1c1ccc(Cl)cc1 (stereo not shown),"DNA gyrase (gyrA/gyrB, Escherichia coli, UniProt P0AES4+P0AES6)",,,,10.9 µM
